Assay results of several laboratories.
Lines come from different studies, so protocols differ. Several values in a cell are separate wells, animals, samples, runs or records.

| Compound | test | test system | setting | quantity | result |
| --- | --- | --- | --- | --- | --- |
| CC(C)[C@@H]1NC(=O)CNC(=O)[C@H](CC(N)=O)NC(=O)[C@H](CCCNC(=N)N)NC(=O)[C@H](Cc2ccc(O)cc2)NC(=O)[C@H](C(C)C)NC(=O)[C@@H](NC(=O)[C@@H](NC(=O)[C@H](CC(N)=O)NC(=O)[C@H](Cc2c[nH]c3ccccc23)NC(=O)[C@H](C)NC(=O)[C@H](Cc2ccccc2)NC(=O)CNC(=O)[C@H](CCCCN)NC(=O)[C@H](Cc2ccccc2)NC(=O)[C@H](Cc2ccccc2)NC(=O)[C@H](CCCCN)NC(=O)OCC2c3ccccc3-c3ccccc32)C(C)C)CSSC[C@@H](C(=O)N[C@@H](Cc2c[nH]cn2)C(=O)N[C@@H](CCCNC(=N)N)C(=O)N[C@@H](CCCNC(=N)N)C(=O)N[C@@H](C)C(=O)N[C@@H](CC(N)=O)C(N)=O)NC(=O)[C@H](C(C)C)NC(=O)[C@H](CCCNC(=N)N)NC1=O | HPLC | mouse mammary gland homogenate | 2560 µM, 10.00 h, 37 °C, 50 mg/mL tissue | remaining peptide | 62.6% and 57.8% and 64% |
| CC[C@H](C)[C@H](NC(=O)[C@@H](NC(=O)[C@H](CCCCN)NC(=O)[C@@H](NC(=O)CNC(=O)[C@@H](N)CCCNC(=N)N)[C@@H](C)O)C(C)C)C(=O)N[C@@H](CC(C)C)C(=O)N[C@@H](Cc1c[nH]cn1)C(=O)N[C@@H](CC(C)C)C(N)=O | LC-MS | pronase digest | 200 µM, 30 min, pH 7.5, 37 °C, added: pronase 2.5 µg/mL | remaining intact peptide | 0% |
| C=CCN1CCC23c4c5ccc(OC(=O)c6ccc(NC(=O)OC(C)(C)C)cc6)c4OC2C(=O)CCC3(O)C1C5 (stereo not shown) |  | rat plasma | 0.5 h, added: digitonin 100 µM | remaining compound | 0.851% and 0.652% and 0.665% |
| Cc1nnc(-c2ccc(CC(=O)NCCCC[C@H](NC(=O)c3ccc(OCc4ccc(B(O)O)cc4)c(-c4nc5ccccc5c(=O)[nH]4)c3)C(=O)NCC(=O)NCC(=O)NCC(=O)N[C@@H](Cc3ccccc3)C(=O)N[C@@H](Cc3ccccc3)C(=O)O)cc2)nn1 | UPLC-MS/MS | human serum | 100 µM, 2 h, 37 °C | remaining compound | 85% and 82.7% |
| C#Cc1c(F)ccc2cc(O)cc(-c3ncc4c(N5CC6CCC(C5)N6C(=O)OC(C)OC(=O)CC(C)(C)C)nc(OC[C@@]56CCCN5C[C@H](F)C6)nc4c3F)c12 (stereo partly shown) |  | simulated gastric fluid | 1 µM, 30 min, 37 °C | remaining prodrug | 77.9% |
| C=CCN1CCC23c4c5ccc(OC(=O)c6ccccc6)c4OC2C(=O)CCC3(O)C1C5 (stereo not shown) |  | rat plasma | 0 h, added: digitonin 100 µM | remaining compound | 90.1% and 95.8% and 114% |
| C#Cc1c(F)ccc2cc(O)cc(-c3ncc4c(N5CC6CCC(C5)N6C(=O)OC(C)OC(=O)c5cccnc5)nc(OC[C@@]56CCCN5C[C@H](F)C6)nc4c3F)c12 (stereo partly shown) |  | simulated gastric fluid | 1 µM, 30 min, 37 °C | remaining prodrug | 97.3% |
| CSCC[C@@H]1NC(=O)[C@H](Cc2ccccc2)NC(=O)CNC(=O)[C@H](NC(=O)[C@@H](N)Cc2ccc(O)cc2)CSSC[C@H](C(=O)N[C@@H](Cc2c[nH]c3ccccc23)C(=O)NCc2cc(C(F)(F)F)cc(C(F)(F)F)c2)NC(=O)[C@@H]2CCCN2C1=O |  | rat plasma | 50 µg/mL, 24 h, 37 °C | remaining intact peptide | 70% |
| C#Cc1c(F)ccc2cc(O)cc(-c3ncc4c(N5CC6CCC(C5)N6C(=O)OC(C)OC(=O)CCC5CCCC5)nc(OC[C@@]56CCCN5C[C@H](F)C6)nc4c3F)c12 (stereo partly shown) |  | simulated gastric fluid | 1 µM, 30 min, 37 °C | remaining prodrug | 102% |
| C[C@H](NCc1ccc(-c2ccc(C(F)(F)F)cc2)cc1)C(N)=O |  | human plasma | 1 µM, 120 min | remaining compound | 98.3% |

Excerpt of the above:
| Compound | test | test system | setting | quantity | result |
| --- | --- | --- | --- | --- | --- |
| C#Cc1c(F)ccc2cc(O)cc(-c3ncc4c(N5CC6CCC(C5)N6C(=O)OC(C)OC(=O)c5cccnc5)nc(OC[C@@]56CCCN5C[C@H](F)C6)nc4c3F)c12 (stereo partly shown) |  | simulated gastric fluid | 1 µM, 30 min, 37 °C | remaining prodrug | 97.3% |
